Measured values collected from several papers.
A part holds a random share of what one study measured. Substitutions count along the parent as printed.
Chain of UniProt Q9BUB5 (whole entry, looked up): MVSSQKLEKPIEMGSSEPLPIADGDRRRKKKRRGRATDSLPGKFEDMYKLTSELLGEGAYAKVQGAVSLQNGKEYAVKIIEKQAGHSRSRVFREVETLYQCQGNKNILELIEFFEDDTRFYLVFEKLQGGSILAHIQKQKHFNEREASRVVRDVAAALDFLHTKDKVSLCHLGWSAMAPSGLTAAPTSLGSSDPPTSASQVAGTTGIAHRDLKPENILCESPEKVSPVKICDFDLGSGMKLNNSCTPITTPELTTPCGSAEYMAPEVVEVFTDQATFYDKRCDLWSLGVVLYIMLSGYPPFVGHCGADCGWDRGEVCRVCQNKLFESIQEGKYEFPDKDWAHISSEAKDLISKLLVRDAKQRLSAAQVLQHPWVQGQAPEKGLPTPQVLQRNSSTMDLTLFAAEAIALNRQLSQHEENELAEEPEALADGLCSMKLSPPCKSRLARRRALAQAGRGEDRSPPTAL

Block 1
Substitution: N149F
Target: ABI1, truncated, D143A, DHFR fusion (Arabidopsis thaliana)
Technique: DHFR PCA, deep sequencing
Sample: yeast
Setting: methotrexate growth selection, single substitutions
Reference: wild-type fitted maximum
Reading: higher = stronger binding
Measurement: relative binding score
Starting sequence: PYL1, truncated, DHFR fusion (Arabidopsis thaliana); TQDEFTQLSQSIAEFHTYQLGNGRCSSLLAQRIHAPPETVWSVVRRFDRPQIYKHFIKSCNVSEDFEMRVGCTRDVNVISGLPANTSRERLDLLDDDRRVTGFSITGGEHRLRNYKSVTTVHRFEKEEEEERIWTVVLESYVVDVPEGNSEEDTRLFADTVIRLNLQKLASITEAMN; partner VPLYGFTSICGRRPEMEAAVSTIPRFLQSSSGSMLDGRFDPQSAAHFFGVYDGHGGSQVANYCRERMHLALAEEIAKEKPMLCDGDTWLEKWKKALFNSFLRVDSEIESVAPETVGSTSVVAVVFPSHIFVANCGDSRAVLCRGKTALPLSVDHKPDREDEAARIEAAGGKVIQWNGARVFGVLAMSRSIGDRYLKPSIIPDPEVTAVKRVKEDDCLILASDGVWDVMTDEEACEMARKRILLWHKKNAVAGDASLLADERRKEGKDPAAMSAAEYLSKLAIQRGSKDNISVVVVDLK
with = (+)-ABA 710 µM; result = 34.4%
with = (+)-ABA 0.032 µM; result = 4.15%
with = (+)-ABA 4.8 µM; result = -9.52%
with = (+)-ABA 0.11 µM; result = 2%
with = (+)-ABA 0.39 µM; result = -10.1%
with = (+)-ABA 58 µM; result = 4.41%

Block 2
Target: RNA binding protein fox-1 homolog 2, RRM domain, GST-SBP tag (RBFOX2, Homo sapiens, UniProt O43251-10, residues 100-194)
Technique: RNA Bind-n-Seq
Form: RNA
Sample: in vitro
Tested at: 365 nM
Setting: natural RNA segment, single round, ends assumed
Reference: no-protein control
Reading: higher = stronger binding
Measurement: RBNS enrichment (R)
Shared flanks, not repeated: GGGAGUUCUACAGUCCGACGAUC … UGGAAUUCUCGGGUGCCAA
Residues (chain): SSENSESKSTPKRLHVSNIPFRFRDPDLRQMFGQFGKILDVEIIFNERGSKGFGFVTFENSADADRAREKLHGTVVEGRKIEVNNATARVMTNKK
Sequence = AUUCUAGAAGGUAUGCGAUCAAACUUUUUAAAGAAAGAAAAUACUUUUUGACUCAUGGUUUAAAGGCAUCCUUUCCAUCUUGGGGAGGUCAUGGGUGCUCCUGGCAACUU; result = 0.428
Sequence = GGAAGAUGCUAAUCCACACAGAAAUGGCAGCCCUUGGUCUGGAAAGGGAAGGCUGCGGGAAUCAUGUUAAGCAGCUUCAUUAAAUGACAUCAUCACGUGUCUAAACAGCU; result = 0.541
Sequence = UAAGUGUAUGUAUGUGUGUGCGUGUGUGUGUGUCUUCUUAAAGAAGAUGUAAUUCACAAAUAGUUUAGCUCCCUAGCGCUCAGUUGUAGAAUAGAAAAUAGAACAUUAUU; result = 1.4
Sequence = UCUCCUUAUCCACAUCCCUGCAGAAGGUGGGCCCUAUUCUCAGAAGAGUCCUGGCUGCUGUUGCCAUCUGAAUGCGCCCUUCCCUUUCAGGUUGACCAGCAGUGGCCUUA; result = 0.43
Sequence = GGCCCAGCUGGGACUGUGUGCUCCCGGCCUUCUAGCCCCACAGCCCACAGACAUUGGUCUUGAGAGAGCCUUGGCUGUGUAUCAAUUACAAAGCCCUGCCAGCAAGGGGA; result = 0.235
Sequence = UUACCACCUUCUCCCCACUUGAUGGUUCUUGACUUUGUAAAAAUUUAAAUAAAUGAAUGUCUAUACUUUUUAAGGAAAAGAGAAAAUACCAUGUCACAGAAAAGGUGAAA; result = 0.658
Sequence = GAUUUACUGAAAUAGCUAAUUGUCAGGUGCUUAAGCUUUUGUGCAGUAAGCCUAAAAGUUAGCAGAAGAUGGCCUCCUGCCAGCAGGAAAUCUUUACCCUUUAGUACCCG; result = 0.21
Sequence = CUGACCCAAGACAAAAUGCACAAGUCAGGAAGCACUUCCUUGUGCCCGAGCUGUGGGCCACCCUGGGGGCGCUGUCGCUGCUGUUUCCCUGCCCGAGAAUCAGCUUGAAU; result = 1.02

Block 3
Target: Centromere-binding protein 1, full length, N-terminal tag (CBF1, Saccharomyces cerevisiae, UniProt P17106, residues 1-351)
Chain of UniProt P17106 (whole entry, looked up): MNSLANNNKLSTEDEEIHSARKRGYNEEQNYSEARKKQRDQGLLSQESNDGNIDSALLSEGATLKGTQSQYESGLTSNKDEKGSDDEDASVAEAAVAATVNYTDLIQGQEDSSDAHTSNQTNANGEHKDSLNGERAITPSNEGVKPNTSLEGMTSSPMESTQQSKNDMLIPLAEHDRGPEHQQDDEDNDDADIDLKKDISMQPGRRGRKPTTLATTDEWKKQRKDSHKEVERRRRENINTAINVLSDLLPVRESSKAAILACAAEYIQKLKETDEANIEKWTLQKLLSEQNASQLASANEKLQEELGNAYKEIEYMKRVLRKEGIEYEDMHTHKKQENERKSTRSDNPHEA
Technique: protein-binding microarray
Form: double-stranded DNA, one strand shown
Sample: in vitro
Tested at: 0.8 µM
Setting: whole 60-bp probe, no competitor
Reading: higher = stronger binding
Measurement: fluorescence intensity
Shared flanks, not repeated: … GTCTTGATTCGCTTGACGCTGCTG
Sequence = CTATTCAAAGATGATCACGGCTGTTCTCGGAGTTTC; result = 566 a.u.
Sequence = CCTAACTACTATACACACGGGAAATAGCTTCGTACA; result = 526 a.u.
Sequence = GAATATCATTTTCCTGATGACCTTTGACTGCTCTAG; result = 553 a.u.
Sequence = TGTACGAAGCTATGTGATCTCGTTATAGTAGTTAGG; result = 533 a.u.
Sequence = CTAAAGACATGCTTTCTCATGACTGCCTAATAATTC; result = 669 a.u.
Sequence = CTACGCCGCTATTACTACGTGCTGCTTCTTTTGTTC; result = 509 a.u.
Sequence = TGTACGAAGCTATGTGACCTGACTATAGTAGTTAGG; result = 583 a.u.
Sequence = GAAAAAGGGAATAAACAGTCACCTTTAACAAGATAG; result = 556 a.u.

Mixed results
Structure (SMILES) = N#C/C(=C\c1ccc(O)c(O)c1)C(=O)NCc1ccccc1; target = MAP kinase-interacting serine/threonine-protein kinase 1 (MKNK1, Homo sapiens, UniProt Q9BUB5); observed = enzyme activity; mode = inhibitor; tested at = 0.5 µM; reference = control; measurement = remaining activity; result = 77.8%
